Measurements gathered from unrelated publications.
Each numbered part is a random draw from the data of one study; scales do not carry over between parts.

Set 1
Target: Phosphate system positive regulatory protein PHO4, full length, GST-tagged (PHO4, Saccharomyces cerevisiae, UniProt P07270, residues 1-312)
Technique: competition protein-binding microarray
Form: double-stranded DNA, one strand shown
Medium: in vitro
Tested at: 2 µM
Notes: whole 60-bp probe, lowest competitor level
Together with: Cbf1 competitor, 0.05 µM
Direction: higher = stronger binding
Construct (chain): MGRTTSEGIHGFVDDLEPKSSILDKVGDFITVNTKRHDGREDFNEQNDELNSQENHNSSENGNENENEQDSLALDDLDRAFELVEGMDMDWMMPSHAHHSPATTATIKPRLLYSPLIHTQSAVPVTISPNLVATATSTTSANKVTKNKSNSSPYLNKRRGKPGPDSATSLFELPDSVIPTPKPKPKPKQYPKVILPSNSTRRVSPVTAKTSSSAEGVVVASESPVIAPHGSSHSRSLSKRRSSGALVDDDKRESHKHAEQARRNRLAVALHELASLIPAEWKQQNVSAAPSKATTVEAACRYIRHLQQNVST
With `CATATGGAGCATTTGCACGGGCCCTCAGGATAGAAGGTCTTGATTCGCTTGACGCTGCTG` the fluorescence intensity was 9210 a.u.
The fluorescence intensity of `GCGCGACTTGCAAGAAAAGGCATAATTGTGGCGAGGGTCTTGATTCGCTTGACGCTGCTG` is reported as 4020 a.u.
With `CGTTGGATCTAGTTCCACGTGGCCGAGCTTCAAGCCGTCTTGATTCGCTTGACGCTGCTG` the fluorescence intensity was 15500 a.u.
`TCTGATAGTTCTACCATCGTGGGTAACAACGTATGGGTCTTGATTCGCTTGACGCTGCTG` gave a fluorescence intensity of 9970 a.u.

Set 2
Target: Sal-like protein 4, full length isoform B (SALL4, Homo sapiens, UniProt Q9UJQ4-2, residues 1-616)
Technique: universal PBM
Form: double-stranded DNA, one strand shown
Medium: in vitro
Tested at: not given
Notes: 8-mer, flanks averaged, mean of replicates
Direction: higher = stronger binding
Residues (chain): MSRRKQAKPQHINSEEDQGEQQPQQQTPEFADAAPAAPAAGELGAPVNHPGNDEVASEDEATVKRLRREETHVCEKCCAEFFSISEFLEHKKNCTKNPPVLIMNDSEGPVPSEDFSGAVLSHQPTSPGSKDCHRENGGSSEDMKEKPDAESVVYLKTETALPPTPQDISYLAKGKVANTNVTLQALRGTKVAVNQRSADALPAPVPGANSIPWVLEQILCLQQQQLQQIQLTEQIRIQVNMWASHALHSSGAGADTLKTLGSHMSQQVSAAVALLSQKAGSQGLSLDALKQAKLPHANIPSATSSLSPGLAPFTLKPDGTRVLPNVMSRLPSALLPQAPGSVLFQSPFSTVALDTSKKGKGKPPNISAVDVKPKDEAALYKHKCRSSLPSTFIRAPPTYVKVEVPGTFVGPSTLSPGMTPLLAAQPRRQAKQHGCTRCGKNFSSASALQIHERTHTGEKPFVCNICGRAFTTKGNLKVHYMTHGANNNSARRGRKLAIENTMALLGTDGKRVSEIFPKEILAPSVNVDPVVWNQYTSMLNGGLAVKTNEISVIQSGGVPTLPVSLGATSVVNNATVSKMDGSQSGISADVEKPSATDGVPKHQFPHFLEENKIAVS
With `AACTTCTA` the E-score was 0.0753.
`ACGAACGT` has an E-score of 0.0406.
With `CTACAGTA` the E-score was 0.0864.
`AGAGGTAT` gave an E-score of 0.12.
The E-score of `TATAAAAA` is reported as 0.425.
`AGAATTGG` gave an E-score of 0.0371.
For `AGCGGGGA`, the E-score was -0.036.

Set 3
Target: Protein C-ets-1 (ETS1, Homo sapiens, UniProt P14921, residues 1-441, K379A, full length assumed)
Technique: protein-binding microarray
Form: double-stranded DNA, one strand shown
Medium: in vitro
Tested at: not given
Notes: k-mer, scored over probes, only values ≥0.25
Direction: higher = stronger binding
Target sequence (chain): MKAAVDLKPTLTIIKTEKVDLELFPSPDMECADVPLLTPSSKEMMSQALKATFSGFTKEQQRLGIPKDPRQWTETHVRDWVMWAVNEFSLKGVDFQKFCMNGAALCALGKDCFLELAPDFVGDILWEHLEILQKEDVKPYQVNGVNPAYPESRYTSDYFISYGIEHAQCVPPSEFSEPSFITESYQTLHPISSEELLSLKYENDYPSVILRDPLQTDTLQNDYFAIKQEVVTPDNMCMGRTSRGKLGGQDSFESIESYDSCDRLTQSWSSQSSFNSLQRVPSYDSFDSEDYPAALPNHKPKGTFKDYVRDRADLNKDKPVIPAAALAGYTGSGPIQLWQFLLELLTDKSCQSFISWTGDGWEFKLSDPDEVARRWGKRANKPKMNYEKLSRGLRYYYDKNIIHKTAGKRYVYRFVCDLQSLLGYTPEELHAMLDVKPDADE
`ATACCGTC` has an E-score of 0.278.
For `GCCGGGGA`, the E-score was 0.381.
With `CGGTTGTA` the E-score was 0.268.
With `ATGTAAAA` the E-score was 0.254.

Single results of other studies
The fold induction of `PhoQ, residues 284 288 289 292 302 303 NLALSC` is reported as 1.09 (PhoP, residues 12 14 15 18 19 TQAIL (Escherichia coli, UniProt P23836); Sort-seq, item: YFP reporter; E. coli; PhoQ-PhoP variant library, together with: 10 µM Mg2+; relative to: high Mg2+ state, higher = stronger signaling).

A few entries again (set 1):
With `CATATGGAGCATTTGCACGGGCCCTCAGGATAGAAGGTCTTGATTCGCTTGACGCTGCTG` the fluorescence intensity was 9210 a.u.
